Assay results gathered from unrelated publications.
Every numbered part comes from another study and shows a few of its results, in no order.

Set 1
Target: RNA binding protein fox-1 homolog 2, RRM domain, GST-SBP tag (RBFOX2, Homo sapiens, UniProt O43251-10, residues 100-194)
Technique: RNA Bind-n-Seq
Form: RNA
Medium: in vitro
Concentration: 365 nM
Setting: natural RNA segment, single round, ends assumed
Reference: no-protein control
Direction: higher = stronger binding
All sequences stand within: GGGAGUUCUACAGUCCGACGAUC … UGGAAUUCUCGGGUGCCAA
Construct (chain): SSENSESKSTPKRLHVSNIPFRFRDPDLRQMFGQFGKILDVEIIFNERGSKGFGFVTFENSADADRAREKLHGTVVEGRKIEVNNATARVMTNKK
Oligonucleotide	RBNS enrichment (R)
UUUGGAAAUUGUUAUGUAUCACUAAAAGCAUGAAUUGGAACUGCACUGGAAGUCAAAUUCACUUAAAAAAGAAAUUGUGUGGCUUCACCAAGAAGCAGAGUUCAACUUAU	11.1
UGUGGAGUAUUUACUUGCUCAGUAACUGUGACUGUUGUCUAUUGAGACCUAGCCUAGUUUUCCUGCAGACAAUGAAUGAAGUGUGCUCAUUGAAAUAAAAUACAGAGUCA	0.405
ACUGUGCUAGCUCUUGGGUUGAGGAAUGGAAUGGGUAGCCUUCUGCUUACUGGAGAUGCACAGAGAAACAUGGCUGAAAACAGCUUUAAAAAGAACAUGUCUUUGGGUUC	1.37
UUGACAAGUCGGAGAAGGCUCCUGCGUUCAGAAAUGAGCCUGCCUGCAGAGUAUAGGGGCCUGAAAGUUUUAUGAAACGGGUGUAAUAUCUCCUCUGCCUGUGACUUGGG	3.05
AUUUUUCCCAUAAGAAUUAUAAGCUGCAUUUCUAAGGCAUAGCUCCAAUUAUGAGAUAAAAUUUAUACUUUUUACUUUUCUAAAUUAAACACAAGAAAGAAUGCAAAAAC	0.737
GGCGUUGGUACACAGGCAAGGAUUGGCACAACCAAAAUUGGCCUUUUUCUCCCUCUUAAUAUUGAAGAAAUUCCCACAUUUCUCAUUUGGUAAUGGUGUUGUGGCCUCAG	0.413
GAGAGAGAACAUCUCUCCGGACCCCCUGACUCAGAGCCUCGUGGCCCGGCAUCCCUUAGCCUCUAUAGCAGUGUGCUCAAAAGCCCUGGCUCAACAAAGCACAUCUUCAC	0.178
GAAAGUGGGACCUAGGGCCCUGGGAGGACACCUAGCAACAGCAGGUUCCAUUUCACCUCAGAUGGCAGCUUGCCUGGCAGUGGACUUAGAGUGUUCUAGUCUGAUGUAUG	0.494
GUCUCCUCCCUUCCACCUUUCUCCUUGCAUUGUGAUGAUCUAGUAGGCACGUCUGUCAACAGGACACAUGCCUCCUCUGACUAUAACCUCUUAAUAGUUGUGUAUAAUGA	0.364
UUAACAAGUAUUGUAGGCACGGUGGAUUUUUUUGAAAUACCCAUGUGUCCAAUAGCAAGUUAAGGAACCUAGCGCAUCAAAUUUUGUUUUCUUCAUUCAUUUGGAACCUU	1.14
GUGCUUCCUUGACCUCUGACCUCUAGGCUCAUCUAAGCCUUGUGGGGAAAGGGAAGAGAUGGGGACAGCUGGUCCCAGGAGAUGCAGGCCCUUGCCUUAGGAUCCUGGUG	0.331
GAGUCAACAGGAACACCAUAGCACCCACAAAUACUUCUACUUGAAUCAUAUUCUGUGCUUUUUCAAUCACUAGUGCAGAAUAGGCUGCAUUUGACACAGACUGUUAGGCA	0.374

Set 2
Target: Protein max, full length (MAX, Homo sapiens, UniProt P61244-2, residues 1-151)
Technique: protein-binding microarray
Form: double-stranded DNA, one strand shown
Medium: in vitro
Concentration: not given
Setting: k-mer, scored over probes, only values ≥0.25
Direction: higher = stronger binding
Oligonucleotide	E-score
CATGATCC	0.257
AGGTGTGC	0.328
AGACATGC	0.396
ACGAGGCT	0.268
CCCATGCC	0.371
GCGTGTAC	0.414
ACCGCACG	0.329
CGTGTGGA	0.306
GCGTGGAC	0.388
CACGCTAG	0.37
CACGCGGG	0.461
AACAGCGT	0.305
ACACATGG	0.477
GTCACGCA	0.337
ATCCACGA	0.284
ACACGCAG	0.277
AGTATGGC	0.261
ACACGCCT	0.357
ATCATATG	0.31
ATGCGTTC	0.356
CATGGGGG	0.39
CCACGGGG	0.386
CTGCATGC	0.377
CCGTGCGC	0.296
AGACACAT	0.261

Set 3
Target: Interferon regulatory factor 7, full length, phosphomimetic (IRF7, Homo sapiens, UniProt Q92985, residues 1-503, S471D/S472D/S475D/S476D/S477D/S483D/S484D/S487D)
Technique: protein-binding microarray
Form: double-stranded DNA, one strand shown
Medium: in vitro
Concentration: 2200 nM top
Setting: 60-bp whole probe
With: salmon DNA 0.4 mg/ml
Reference: random background probes
Direction: higher = stronger binding
All sequences stand within: GCCTAGCAC … GTCTTGATTCGCTTGACGCTGCTG
Target sequence (chain): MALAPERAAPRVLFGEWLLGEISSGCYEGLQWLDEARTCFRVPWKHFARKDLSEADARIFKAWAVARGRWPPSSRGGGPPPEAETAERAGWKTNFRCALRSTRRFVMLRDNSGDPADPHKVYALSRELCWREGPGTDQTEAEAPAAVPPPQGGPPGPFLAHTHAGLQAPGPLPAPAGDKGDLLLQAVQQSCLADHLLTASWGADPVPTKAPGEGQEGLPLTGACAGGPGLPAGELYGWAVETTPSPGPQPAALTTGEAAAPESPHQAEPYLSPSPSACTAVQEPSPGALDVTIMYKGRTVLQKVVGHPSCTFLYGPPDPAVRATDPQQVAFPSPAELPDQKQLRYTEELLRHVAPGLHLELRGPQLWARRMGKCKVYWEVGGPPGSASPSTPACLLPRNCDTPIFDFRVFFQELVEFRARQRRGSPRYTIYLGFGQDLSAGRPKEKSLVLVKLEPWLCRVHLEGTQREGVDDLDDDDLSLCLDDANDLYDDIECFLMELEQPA
Oligonucleotide	fitted relative affinity
TTAGGACTGGGGTATCTGTTAGTGCTA	-0.447 z-score
TCAACTTCGGCCTCTAGGACTGTGCTA	-0.0844 z-score
GTCATTCTCAACCCTGGTGCTGTGCTA	0.821 z-score
TTAGGTTTCCTTCTACTTTAGTGCTAG	2.01 z-score
TTTTTTTTACTTCGGGTGACGTGCTAG	1.37 z-score
GACGATTTCGGGTTACGAGACGTGCTA	5.78 z-score
GACGATATCGGGTATCGAGAGGTGCTA	-0.149 z-score
TGGGCACACTTTGGGTCCTGGTGCTAG	-0.839 z-score
TTAGATATCAGACAGGATTAGTGCTAG	-0.495 z-score
GACAGTTTCGGGACTGGGGACGTGCTA	4.48 z-score
TCACATCTCCAGTAGCCTACTGTGCTA	1.55 z-score
TCAGCTTCTTTTTTATTACTGTGCTAG	0.788 z-score
GACGAACTAGGGTATCGAGACGTGCTA	-0.545 z-score
TCACTCGTGTTTTTCTCACTGTGCTAG	1.98 z-score
GACCGTCTCCTACTGCTGACGTGCTAG	0.986 z-score
GACGAGCTCAGTATCGAGACGTGCTAG	-0.299 z-score
TTAGGTATCGCTATCGGTTAGTGCTAG	1.04 z-score
GACGAACTGGGGTTTCGACACGTGCTA	0.846 z-score
TTAGTTTTCGACACTGGGTTAGTGCTA	2.91 z-score
GACGGTATCCTTATCCTGCCGTGCTAG	0.687 z-score
GAAGGACTGGGTCTCGGGACGTGCTAG	-0.828 z-score
TTAGGCATCGACTATCGGTTAGTGCTA	-0.174 z-score
GACGGTTTCGGGTTTCGGGTCGTGCTA	11.4 z-score
AGTGTTACCCCTCATCAACCAGTGCTA	1.08 z-score
GACGGTCTCGGTTTCGGGCCGTGCTAG	2.94 z-score

Set 4
Target: Prothrombin, mature alpha-thrombin (F2, Homo sapiens, UniProt P00734)
Technique: aptamer microarray, sandwich
Form: DNA with 2'F-ANA
Medium: in vitro
Concentration: 200 nM
Setting: whole 15-mer aptamer, many near background
With: Cy3 exosite-II aptamer, 400 nM
Direction: higher = stronger binding
Oligonucleotide: GGTTGGTGTGGTTGG
Modification	mean fluorescence intensity [a.u.]
2'F-ANA at 7 9 10 12 13 15	198
2'F-ANA at 1 5 6 7 10 12 13 15	48.5
2'F-ANA at 3 4 5 6 9 10 11 13	60.5
2'F-ANA at 2 6 8 9 11 12 13	433
2'F-ANA at 1 2 3 4 7 10 13 14 15	52.7
2'F-ANA at 2 6 8 10 11 14	101
2'F-ANA at 1 2 4 5 6 7 8 12 14	52.6
2'F-ANA at 1 2 3 4 5 6 8 9 11 13 14	50.3
2'F-ANA at 1 2 3 5 6 8 13	54.9
2'F-ANA at 1 2 5 8 9 13 14	45.6
2'F-ANA at 1 2 10 15	56.4
2'F-ANA at 4 5 6 9 13 15	54.1
2'F-ANA at 3 5 8 9 10 11	60.5
2'F-ANA at 1 2 3 5 6 9 11 12	106
2'F-ANA at 1 4 8	193
2'F-ANA at 1 2 4 6 8 9 12 14	58.3
2'F-ANA at 3 7 8 9 11 13 14 15	693
2'F-ANA at 2 4 5 8 9 10 11 12 13 14	47
2'F-ANA at 1 3 6 8 10 11 13 14 15	62.2
2'F-ANA at 1 5 6 7 8 12 13 14	71.1
2'F-ANA at 1 2 6 14 15	56.5
2'F-ANA at 2 3 4 5 6 8 9 10 13 14	191
2'F-ANA at 3 7 8 9 10 12 13 15	748

A few entries again (set 3):
Oligonucleotide	fitted relative affinity
GACGATATCGGGTATCGAGAGGTGCTA	-0.149 z-score
TGGGCACACTTTGGGTCCTGGTGCTAG	-0.839 z-score
TTAGATATCAGACAGGATTAGTGCTAG	-0.495 z-score
GACAGTTTCGGGACTGGGGACGTGCTA	4.48 z-score
TCACATCTCCAGTAGCCTACTGTGCTA	1.55 z-score
TCAGCTTCTTTTTTATTACTGTGCTAG	0.788 z-score
GACGAACTAGGGTATCGAGACGTGCTA	-0.545 z-score
TCACTCGTGTTTTTCTCACTGTGCTAG	1.98 z-score
